Assay results gathered from unrelated publications.
Every numbered part comes from another study and shows a few of its results, in no order. “And” joins repeats or separate records; there may be more than shown.
Sequence of UniProt P06241 (whole entry, looked up): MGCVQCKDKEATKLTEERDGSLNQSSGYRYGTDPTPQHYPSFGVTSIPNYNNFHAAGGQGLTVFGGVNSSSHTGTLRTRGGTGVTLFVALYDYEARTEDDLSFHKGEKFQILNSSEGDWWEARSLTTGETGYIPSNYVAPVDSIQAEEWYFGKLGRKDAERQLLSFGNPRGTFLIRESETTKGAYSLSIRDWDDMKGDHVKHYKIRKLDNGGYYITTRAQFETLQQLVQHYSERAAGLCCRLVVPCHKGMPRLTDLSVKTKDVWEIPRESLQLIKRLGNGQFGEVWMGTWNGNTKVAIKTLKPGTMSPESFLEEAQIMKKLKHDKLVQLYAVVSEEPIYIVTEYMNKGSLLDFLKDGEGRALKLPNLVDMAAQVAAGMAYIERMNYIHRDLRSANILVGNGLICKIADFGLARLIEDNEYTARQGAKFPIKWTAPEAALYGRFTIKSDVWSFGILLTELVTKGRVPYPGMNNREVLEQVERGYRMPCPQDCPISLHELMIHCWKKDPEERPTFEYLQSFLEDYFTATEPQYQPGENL
Sequence of UniProt Q00526 (whole entry, looked up): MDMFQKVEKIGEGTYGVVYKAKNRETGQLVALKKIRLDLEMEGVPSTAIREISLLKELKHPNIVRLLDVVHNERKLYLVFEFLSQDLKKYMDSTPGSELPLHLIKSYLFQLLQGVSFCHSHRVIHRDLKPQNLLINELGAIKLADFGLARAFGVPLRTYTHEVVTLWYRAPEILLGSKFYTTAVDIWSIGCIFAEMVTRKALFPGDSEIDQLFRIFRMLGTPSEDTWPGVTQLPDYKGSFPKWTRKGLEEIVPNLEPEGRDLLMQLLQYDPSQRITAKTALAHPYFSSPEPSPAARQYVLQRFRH
Sequence of UniProt Q99558 (whole entry, looked up): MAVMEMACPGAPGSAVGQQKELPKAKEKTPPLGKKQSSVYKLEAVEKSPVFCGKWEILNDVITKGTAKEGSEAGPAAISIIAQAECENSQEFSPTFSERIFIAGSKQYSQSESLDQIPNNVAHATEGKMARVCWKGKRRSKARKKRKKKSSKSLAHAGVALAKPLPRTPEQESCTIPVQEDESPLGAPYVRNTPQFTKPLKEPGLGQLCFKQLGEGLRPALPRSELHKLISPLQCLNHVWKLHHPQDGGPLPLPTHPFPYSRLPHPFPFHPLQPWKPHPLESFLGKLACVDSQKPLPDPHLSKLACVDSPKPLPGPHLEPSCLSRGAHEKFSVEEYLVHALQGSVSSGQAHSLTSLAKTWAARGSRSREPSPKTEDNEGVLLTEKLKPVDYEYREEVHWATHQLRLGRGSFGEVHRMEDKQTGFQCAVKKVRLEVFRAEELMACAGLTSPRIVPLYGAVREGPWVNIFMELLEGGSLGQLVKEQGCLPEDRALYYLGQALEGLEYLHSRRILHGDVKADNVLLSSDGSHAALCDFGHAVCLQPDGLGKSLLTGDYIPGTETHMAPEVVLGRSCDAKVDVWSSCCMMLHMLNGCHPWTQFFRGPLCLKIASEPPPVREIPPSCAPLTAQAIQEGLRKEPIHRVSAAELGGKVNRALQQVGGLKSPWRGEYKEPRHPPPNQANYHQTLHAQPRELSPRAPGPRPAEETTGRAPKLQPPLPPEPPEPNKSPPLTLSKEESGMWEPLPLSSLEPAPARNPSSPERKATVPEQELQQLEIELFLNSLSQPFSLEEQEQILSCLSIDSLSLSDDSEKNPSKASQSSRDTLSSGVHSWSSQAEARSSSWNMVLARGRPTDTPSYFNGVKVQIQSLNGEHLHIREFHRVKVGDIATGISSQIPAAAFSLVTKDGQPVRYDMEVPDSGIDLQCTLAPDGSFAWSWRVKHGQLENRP
Sequence of UniProt P04629 (whole entry, looked up): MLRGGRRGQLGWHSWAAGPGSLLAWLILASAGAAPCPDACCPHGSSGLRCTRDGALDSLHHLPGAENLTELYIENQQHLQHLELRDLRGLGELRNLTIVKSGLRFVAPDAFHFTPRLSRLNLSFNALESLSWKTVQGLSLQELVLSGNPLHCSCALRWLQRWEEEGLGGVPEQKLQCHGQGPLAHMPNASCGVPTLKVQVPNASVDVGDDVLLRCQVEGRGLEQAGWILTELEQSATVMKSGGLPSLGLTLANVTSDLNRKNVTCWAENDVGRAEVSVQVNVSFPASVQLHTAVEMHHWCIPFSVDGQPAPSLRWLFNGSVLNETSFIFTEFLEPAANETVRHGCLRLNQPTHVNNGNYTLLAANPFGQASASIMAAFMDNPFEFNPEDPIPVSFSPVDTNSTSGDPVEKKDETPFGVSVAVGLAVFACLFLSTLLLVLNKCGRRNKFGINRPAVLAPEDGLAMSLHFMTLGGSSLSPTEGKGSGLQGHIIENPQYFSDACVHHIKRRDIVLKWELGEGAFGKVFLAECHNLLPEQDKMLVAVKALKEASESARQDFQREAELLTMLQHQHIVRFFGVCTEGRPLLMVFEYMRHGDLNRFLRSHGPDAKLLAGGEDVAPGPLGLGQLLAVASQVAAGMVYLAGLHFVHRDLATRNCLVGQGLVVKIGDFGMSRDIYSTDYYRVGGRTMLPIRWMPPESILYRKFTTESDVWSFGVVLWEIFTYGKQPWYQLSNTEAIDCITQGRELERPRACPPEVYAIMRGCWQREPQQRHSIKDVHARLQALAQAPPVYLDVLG
Sequence of UniProt Q08881 (whole entry, looked up): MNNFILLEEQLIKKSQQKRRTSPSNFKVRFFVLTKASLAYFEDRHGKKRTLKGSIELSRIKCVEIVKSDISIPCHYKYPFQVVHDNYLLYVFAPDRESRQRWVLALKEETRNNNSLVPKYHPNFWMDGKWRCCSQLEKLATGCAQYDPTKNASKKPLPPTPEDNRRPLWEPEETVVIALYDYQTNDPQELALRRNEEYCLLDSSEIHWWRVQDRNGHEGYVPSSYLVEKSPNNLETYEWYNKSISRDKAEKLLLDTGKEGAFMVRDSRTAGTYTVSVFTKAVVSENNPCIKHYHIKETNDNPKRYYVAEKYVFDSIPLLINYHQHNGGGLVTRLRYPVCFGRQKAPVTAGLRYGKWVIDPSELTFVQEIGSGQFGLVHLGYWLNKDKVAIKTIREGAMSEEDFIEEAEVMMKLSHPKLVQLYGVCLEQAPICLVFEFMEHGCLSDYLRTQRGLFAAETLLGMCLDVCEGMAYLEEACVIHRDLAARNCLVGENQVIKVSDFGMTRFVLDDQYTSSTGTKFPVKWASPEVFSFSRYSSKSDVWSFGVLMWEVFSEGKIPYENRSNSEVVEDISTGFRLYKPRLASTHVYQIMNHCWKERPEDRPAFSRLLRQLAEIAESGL
Sequence of UniProt P11802 (whole entry, looked up): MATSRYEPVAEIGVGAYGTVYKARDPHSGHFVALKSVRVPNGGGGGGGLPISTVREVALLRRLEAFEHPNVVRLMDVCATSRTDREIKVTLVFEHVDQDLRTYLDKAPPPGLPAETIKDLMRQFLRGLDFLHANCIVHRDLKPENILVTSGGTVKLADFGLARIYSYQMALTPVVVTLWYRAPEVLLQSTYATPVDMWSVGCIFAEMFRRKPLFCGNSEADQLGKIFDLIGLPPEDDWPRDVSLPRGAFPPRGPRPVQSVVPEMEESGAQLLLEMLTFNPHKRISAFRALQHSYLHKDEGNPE

Series 1
Cell line: mouse MPNST tumor cells
Technique: high-content immunofluorescence imaging
Measured: nuclear SOX9
Tested at: 10 µM
Time: 12 h
Notes: mean of 2 replicates
Baseline: DMSO control
Reading: higher = more nuclear SOX9
Quantity: nuclear SOX9 intensity
NS(=O)(=O)c1cc2c(cc1Cl)NC(CC1CCCC1)NS2(=O)=O (stereo not shown): 98.9 % of DMSO
Nc1cc(C(Cl)=C(Cl)Cl)c(S(N)(=O)=O)cc1S(N)(=O)=O: 94.9 % of DMSO
O=C1C(=Cc2cccnc2)C(=O)c2ccccc21: 88.5 % of DMSO
O=C(NCC(=O)N1CCCCC1)Nc1ccc2nnsc2c1: 92.1 % of DMSO
CNC[C@H](O)c1ccc(O)c(O)c1: 101 % of DMSO
Nc1ncn(C2OC(CO)C(O)C2O)c(=O)n1 (stereo not shown): 106 % of DMSO and 131 % of DMSO
COc1ncnc(NS(=O)(=O)c2ccc(N)cc2)c1OC: 110 % of DMSO
O=C(c1ccccc1)c1ccc2n1CCC2C(=O)O (stereo not shown): 104 % of DMSO
C[C@@H]1C[C@H]2[C@@H]3CCC4=CC(=O)C=C[C@]4(C)[C@@]3(Cl)[C@@H](O)C[C@]2(C)[C@@]1(OC(=O)c1ccco1)C(=O)CCl: 118 % of DMSO
CN(C)CCC1(c2ccc(Cl)cc2)Cc2ccccc2C(=O)O1 (stereo not shown): 112 % of DMSO
CCn1cc(C(=O)O)c(=O)c2cc(F)c(N3CCNCC3)nc21: 95.1 % of DMSO and 110 % of DMSO
Cc1cc(-c2nc(C(=O)Nc3cn(C4CCOCC4)nc3C(N)=O)co2)ccn1: 100 % of DMSO

Series 2
Compound: C[C@H](c1cccc(C#N)c1)n1cc(Cl)cc(C(N)=O)c1=N
Tested at: 1 µM
Quantity: remaining binding
Receptor-type tyrosine-protein kinase FLT3 (FLT3, Homo sapiens, UniProt P36888, F691L/ITD); cell-free assay, competition with immobilised ligand: 82%
Mitogen-activated protein kinase kinase kinase 14 (MAP3K14, Homo sapiens, UniProt Q99558); cell-free assay, competition with immobilised ligand: 62%
Ephrin type-B receptor 6 (EPHB6, Homo sapiens, UniProt O15197); cell-free assay, competition with immobilised ligand: 87%
Cyclin-dependent kinase 4, with cyclin D1 (CDK4, Homo sapiens, UniProt P11802); cell-free assay, competition with immobilised ligand: 97%
Serine/threonine-protein kinase ULK1 (ULK1, Homo sapiens, UniProt O75385); cell-free assay, competition with immobilised ligand: 78%
Proto-oncogene tyrosine-protein kinase Src (SRC, Homo sapiens, UniProt P12931); cell-free assay, competition with immobilised ligand: 88%
Tyrosine-protein kinase Fyn (FYN, Homo sapiens, UniProt P06241); cell-free assay, competition with immobilised ligand: 42%
Leukocyte tyrosine kinase receptor (LTK, Homo sapiens, UniProt P29376); cell-free assay, competition with immobilised ligand: 99%
Tyrosine-protein kinase receptor UFO (AXL, Homo sapiens, UniProt P30530); cell-free assay, competition with immobilised ligand: 100%
Calcium/calmodulin-dependent protein kinase type 1 (CAMK1, Homo sapiens, UniProt Q14012); cell-free assay, competition with immobilised ligand: 100%
AP2-associated protein kinase 1 (AAK1, Homo sapiens, UniProt Q2M2I8); binding: 100%
Ephrin type-A receptor 2 (EPHA2, Homo sapiens, UniProt P29317); cell-free assay, competition with immobilised ligand: 89%
High affinity nerve growth factor receptor (NTRK1, Homo sapiens, UniProt P04629); cell-free assay, competition with immobilised ligand: 100%
Phosphatidylinositol 4,5-bisphosphate 3-kinase catalytic subunit alpha isoform (PIK3CA, Homo sapiens, UniProt P42336, C420R); cell-free assay, competition with immobilised ligand: 100%
Dual specificity tyrosine-phosphorylation-regulated kinase 1A (DYRK1A, Homo sapiens, UniProt Q13627); cell-free assay, competition with immobilised ligand: 65%
Dual specificity protein kinase CLK1 (CLK1, Homo sapiens, UniProt P49759); cell-free assay, competition with immobilised ligand: 100%
Ribosomal protein S6 kinase alpha-4, N-terminal kinase domain (RPS6KA4, Homo sapiens, UniProt O75676); cell-free assay, competition with immobilised ligand: 100%

Series 3
Organism: Sarcocystis neurona
Read-out: parasite activity
Tested at: 10 µM
Time: 96 h
Quantity: activity class
C[N+]1(C)CCCC(OC(=O)C(O)(c2ccccc2)c2ccccc2)C1 (stereo not shown): inactive
COc1cccc2c1C(=O)c1c(O)c3c(c(O)c1C2=O)C[C@@](O)(C(=O)CO)C[C@@H]3O[C@H]1C[C@H](N)[C@@H](O)[C@H](C)O1: inactive
NC(=O)c1cccnc1: inactive
CC1=C(/C=C/C(C)=C/C=C/C(C)=C\C(=O)O)C(C)(C)CCC1: inactive
CN(C)CCC(c1ccc(Cl)cc1)c1ccccn1 (stereo not shown): inactive
CCCN1C[C@H](CSC)C[C@@H]2c3cccc4[nH]cc(c34)C[C@H]21: inactive
NS(=O)(=O)c1cc2c(cc1Cl)N=CNS2(=O)=O: inactive

Series 4
Structure (SMILES): O=C1NC(=O)c2c1c1c3ccccc3[nH]c1n1cncc21
Read-out: enzyme activity
Mode: inhibitor
Tested at: 0.5 µM
Baseline: control
Quantity: remaining activity
Serine/threonine-protein kinase NLK (NLK, Homo sapiens, UniProt Q9UBE8): 87.9%
Serine/threonine-protein kinase Nek11 (NEK11, Homo sapiens, UniProt Q8NG66): 99%
Serine/threonine-protein kinase MRCK alpha (CDC42BPA, Homo sapiens, UniProt Q5VT25): 92.7%
Proto-oncogene tyrosine-protein kinase Src (SRC, Homo sapiens, UniProt P12931): 88.4%
Serine/threonine-protein kinase 25 (STK25, Homo sapiens, UniProt O00506): 72.5%
Cyclin-dependent kinase 3, with cyclin E (CDK3, Homo sapiens, UniProt Q00526): 76.7%
MAP/microtubule affinity-regulating kinase 3 (MARK3, Homo sapiens, UniProt P27448): 29.8%
Insulin receptor (INSR, Homo sapiens, UniProt P06213): 17.9%
Homeodomain-interacting protein kinase 1 (HIPK1, Homo sapiens, UniProt Q86Z02): 82.6%
Megakaryocyte-associated tyrosine-protein kinase (MATK, Homo sapiens, UniProt P42679): 99.8%
Tyrosine-protein kinase Fer (FER, Homo sapiens, UniProt P16591): 47.9%
RAC-alpha serine/threonine-protein kinase (AKT1, Homo sapiens, UniProt P31749): 102%
ALK tyrosine kinase receptor (ALK, Homo sapiens, UniProt Q9UM73): 84.6%
Tyrosine-protein kinase ITK/TSK (ITK, Homo sapiens, UniProt Q08881): 71.4%
PAS domain-containing serine/threonine-protein kinase (PASK, Homo sapiens, UniProt Q96RG2): 33.6%
Serine/threonine-protein kinase TAO3 (TAOK3, Homo sapiens, UniProt Q9H2K8): 66.9%
cAMP-dependent protein kinase catalytic subunit PRKX (PRKX, Homo sapiens, UniProt P51817): 87.8%
Tyrosine-protein kinase Fgr (FGR, Homo sapiens, UniProt P09769): 94.8%
Serine/threonine-protein kinase N1 (PKN1, Homo sapiens, UniProt Q16512): 76.4%
LIM domain kinase 1 (LIMK1, Homo sapiens, UniProt P53667): 74.7%
Vascular endothelial growth factor receptor 3 (FLT4, Homo sapiens, UniProt P35916): 56.6%
Tyrosine-protein kinase Fyn (FYN, Homo sapiens, UniProt P06241): 97.7%

A few entries again (series 1):
Nc1ncn(C2OC(CO)C(O)C2O)c(=O)n1 (stereo not shown): 106 % of DMSO and 131 % of DMSO
COc1ncnc(NS(=O)(=O)c2ccc(N)cc2)c1OC: 110 % of DMSO
O=C(c1ccccc1)c1ccc2n1CCC2C(=O)O (stereo not shown): 104 % of DMSO
C[C@@H]1C[C@H]2[C@@H]3CCC4=CC(=O)C=C[C@]4(C)[C@@]3(Cl)[C@@H](O)C[C@]2(C)[C@@]1(OC(=O)c1ccco1)C(=O)CCl: 118 % of DMSO
CN(C)CCC1(c2ccc(Cl)cc2)Cc2ccccc2C(=O)O1 (stereo not shown): 112 % of DMSO
CCn1cc(C(=O)O)c(=O)c2cc(F)c(N3CCNCC3)nc21: 95.1 % of DMSO and 110 % of DMSO
